Measured values gathered from unrelated publications.
Protocols differ between the studies behind these lines. ± marks the error that the study gave.
B1: TIMP1 (Homo sapiens, UniProt P01033); chain CTCVPPHPQTAFCNSDLVIRAKFVGTPEVNQTTLYQRYEIKMTKMYKGFQALGDAADIRFVYTPAMESVCGYFHRSHNRSEEFLIAGKLQDGLLHITTCSFVAPWNSLSLAQRRGFTKTYTVGCEECTVFPCLSIPCKLQSGTHCLWTDQLLQGSEKGFQSRHLACLPREPGLCTWQSLRSQIA
B2: human bleomycin hydrolase; sequence looked up; chain MSSSGLNSEKVAALIQKLNSDPQFVLAQNVGTTHDLLDICLKRATVQRAQHVFQHAVPQEGKPITNQKSSGRCWIFSCLNVMRLPFMKKLNIEEFEFSQSYLFFWDKVERCYFFLSAFVDTAQRKEPEDGRLVQFLLMNPANDGGQWDMLVNIVEKYGVIPKKCFPESYTTEATRRMNDILNHKMREFCIRLRNLVHSGATKGEISATQDVMMEEIFRVVCICLGNPPETFTWEYRDKDKNYQKIGPITPLEFYREHVKPLFNMEDKICLVNDPRPQHKYNKLYTVEYLSNMVGGRKTLYNNQPIDFLKKMVAASIKDGEAVWFGCDVGKHFNSKLGLSDMNLYDHELVFGVSLKNMNKAERLTFGESLMTHAMTFTAVSEKDDQDGAFTKWRVENSWGEDHGHKGYLCMTDEWFSEYVYEVVVDRKHVPEEVLAVLEQEPIILPAWDPMGALAE
UniProt Q96NY8, sequence (whole entry, looked up): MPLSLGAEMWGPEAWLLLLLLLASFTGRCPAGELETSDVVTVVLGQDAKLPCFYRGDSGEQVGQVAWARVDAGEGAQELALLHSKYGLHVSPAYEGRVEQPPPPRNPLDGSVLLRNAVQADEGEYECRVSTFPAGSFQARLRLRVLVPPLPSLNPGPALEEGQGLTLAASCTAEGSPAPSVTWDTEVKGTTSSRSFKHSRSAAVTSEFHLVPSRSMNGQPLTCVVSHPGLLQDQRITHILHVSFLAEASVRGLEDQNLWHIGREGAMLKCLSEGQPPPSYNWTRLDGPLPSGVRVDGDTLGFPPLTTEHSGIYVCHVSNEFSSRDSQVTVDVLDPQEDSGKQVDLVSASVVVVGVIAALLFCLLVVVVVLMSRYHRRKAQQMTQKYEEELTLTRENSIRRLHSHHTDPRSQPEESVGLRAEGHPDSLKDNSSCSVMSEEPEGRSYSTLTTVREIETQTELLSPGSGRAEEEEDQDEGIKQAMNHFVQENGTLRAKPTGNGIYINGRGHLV
UniProt Q05541, sequence (whole entry, looked up): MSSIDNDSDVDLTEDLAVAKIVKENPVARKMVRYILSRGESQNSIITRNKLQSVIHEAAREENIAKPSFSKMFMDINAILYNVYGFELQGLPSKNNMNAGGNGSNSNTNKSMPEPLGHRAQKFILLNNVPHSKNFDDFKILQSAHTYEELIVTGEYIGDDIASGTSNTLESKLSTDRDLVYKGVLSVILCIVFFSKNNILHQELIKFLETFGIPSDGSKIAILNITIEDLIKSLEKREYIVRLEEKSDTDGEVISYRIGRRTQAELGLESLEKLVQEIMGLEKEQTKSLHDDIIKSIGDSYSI
UniProt Q9SV55, sequence (whole entry, looked up): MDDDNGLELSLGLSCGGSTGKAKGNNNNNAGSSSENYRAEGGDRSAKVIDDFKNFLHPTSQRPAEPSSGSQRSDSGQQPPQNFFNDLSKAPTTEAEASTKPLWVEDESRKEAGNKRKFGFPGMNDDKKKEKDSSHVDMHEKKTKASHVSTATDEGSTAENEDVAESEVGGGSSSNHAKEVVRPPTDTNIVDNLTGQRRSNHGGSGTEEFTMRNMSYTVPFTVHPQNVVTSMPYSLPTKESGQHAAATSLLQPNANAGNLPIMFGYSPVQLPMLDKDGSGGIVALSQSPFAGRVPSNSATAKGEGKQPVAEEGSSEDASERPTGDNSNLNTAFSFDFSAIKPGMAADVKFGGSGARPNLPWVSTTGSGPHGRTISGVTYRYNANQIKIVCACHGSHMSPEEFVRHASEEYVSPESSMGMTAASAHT
UniProt Q12749, sequence (whole entry, looked up): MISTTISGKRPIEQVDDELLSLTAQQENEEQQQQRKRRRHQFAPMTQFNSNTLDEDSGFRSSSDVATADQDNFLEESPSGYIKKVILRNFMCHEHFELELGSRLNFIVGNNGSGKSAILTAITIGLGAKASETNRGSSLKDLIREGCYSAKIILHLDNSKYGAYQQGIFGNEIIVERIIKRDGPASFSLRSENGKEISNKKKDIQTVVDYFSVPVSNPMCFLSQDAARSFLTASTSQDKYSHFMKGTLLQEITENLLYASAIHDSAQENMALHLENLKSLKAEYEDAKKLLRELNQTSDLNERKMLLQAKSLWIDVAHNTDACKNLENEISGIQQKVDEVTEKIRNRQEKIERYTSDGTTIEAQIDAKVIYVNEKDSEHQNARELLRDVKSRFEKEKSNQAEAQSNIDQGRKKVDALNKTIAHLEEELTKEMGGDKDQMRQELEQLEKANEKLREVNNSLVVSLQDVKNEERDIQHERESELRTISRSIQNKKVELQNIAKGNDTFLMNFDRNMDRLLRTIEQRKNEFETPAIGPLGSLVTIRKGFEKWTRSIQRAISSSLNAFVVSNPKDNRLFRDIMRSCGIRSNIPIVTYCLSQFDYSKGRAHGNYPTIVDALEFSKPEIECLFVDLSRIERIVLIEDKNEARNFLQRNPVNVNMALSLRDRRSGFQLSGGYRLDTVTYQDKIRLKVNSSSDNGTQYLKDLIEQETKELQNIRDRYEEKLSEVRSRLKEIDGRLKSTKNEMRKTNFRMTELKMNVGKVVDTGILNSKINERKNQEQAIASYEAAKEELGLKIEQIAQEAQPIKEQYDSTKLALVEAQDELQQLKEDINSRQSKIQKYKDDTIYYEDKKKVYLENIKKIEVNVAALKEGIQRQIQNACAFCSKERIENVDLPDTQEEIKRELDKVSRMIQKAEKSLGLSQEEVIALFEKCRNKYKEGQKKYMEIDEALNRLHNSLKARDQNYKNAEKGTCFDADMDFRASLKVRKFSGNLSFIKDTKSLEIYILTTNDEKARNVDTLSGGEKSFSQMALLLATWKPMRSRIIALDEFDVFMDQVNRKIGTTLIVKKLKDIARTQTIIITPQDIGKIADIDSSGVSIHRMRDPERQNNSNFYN
UniProt P40235, sequence (whole entry, unmodified, looked up): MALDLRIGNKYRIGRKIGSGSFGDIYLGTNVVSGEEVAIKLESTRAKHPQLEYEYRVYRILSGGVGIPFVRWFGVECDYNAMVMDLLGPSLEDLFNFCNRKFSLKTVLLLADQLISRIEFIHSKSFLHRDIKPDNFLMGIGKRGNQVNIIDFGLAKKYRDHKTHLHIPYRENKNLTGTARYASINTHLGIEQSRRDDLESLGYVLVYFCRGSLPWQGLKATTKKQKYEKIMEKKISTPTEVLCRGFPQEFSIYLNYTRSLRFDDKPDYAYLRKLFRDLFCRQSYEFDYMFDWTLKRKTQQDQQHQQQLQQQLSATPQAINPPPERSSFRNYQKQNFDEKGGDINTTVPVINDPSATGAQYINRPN
UniProt Q9HC52, sequence (whole entry, looked up): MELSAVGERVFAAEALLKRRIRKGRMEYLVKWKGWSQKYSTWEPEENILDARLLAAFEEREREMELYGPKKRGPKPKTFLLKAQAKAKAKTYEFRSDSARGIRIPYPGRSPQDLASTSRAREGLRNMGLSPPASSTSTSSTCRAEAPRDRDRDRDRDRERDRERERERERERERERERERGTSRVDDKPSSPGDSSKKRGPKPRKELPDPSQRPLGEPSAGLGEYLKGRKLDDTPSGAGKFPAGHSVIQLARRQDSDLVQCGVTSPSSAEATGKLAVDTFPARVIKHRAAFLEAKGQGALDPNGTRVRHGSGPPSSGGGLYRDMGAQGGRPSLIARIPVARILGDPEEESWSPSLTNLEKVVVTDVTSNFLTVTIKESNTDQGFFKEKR
UniProt P08253, sequence (whole entry, looked up): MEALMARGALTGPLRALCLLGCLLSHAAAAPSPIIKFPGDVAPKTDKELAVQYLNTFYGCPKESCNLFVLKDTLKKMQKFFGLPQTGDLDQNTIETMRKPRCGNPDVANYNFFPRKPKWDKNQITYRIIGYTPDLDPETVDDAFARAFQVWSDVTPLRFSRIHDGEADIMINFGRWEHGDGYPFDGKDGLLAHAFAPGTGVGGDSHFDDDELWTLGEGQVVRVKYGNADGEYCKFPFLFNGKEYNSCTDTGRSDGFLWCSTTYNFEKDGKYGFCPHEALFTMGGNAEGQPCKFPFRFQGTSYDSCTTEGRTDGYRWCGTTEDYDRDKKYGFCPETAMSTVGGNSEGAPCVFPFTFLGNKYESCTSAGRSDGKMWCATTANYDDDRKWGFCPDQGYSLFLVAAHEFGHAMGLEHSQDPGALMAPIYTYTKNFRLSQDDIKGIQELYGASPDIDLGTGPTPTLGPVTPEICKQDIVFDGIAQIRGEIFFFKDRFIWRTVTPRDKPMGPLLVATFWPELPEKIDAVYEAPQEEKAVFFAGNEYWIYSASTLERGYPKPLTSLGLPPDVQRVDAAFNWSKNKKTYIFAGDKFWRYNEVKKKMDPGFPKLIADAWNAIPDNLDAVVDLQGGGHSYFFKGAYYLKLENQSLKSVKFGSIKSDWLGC

`JAZ2 fragment (Arabidopsis thaliana)` has an IC50 of 190 nM (NINJA 233-425 (Arabidopsis thaliana, UniProt Q9SV55); competitor, AlphaScreen or HTRF).
`ACPFGCMKAWSWPIWCTNK (Bicycle 65 bicyclic peptide; C-terminal amide/TATA scaffold, three cysteines cyclised)` gave a Ki of 45.2 nM (NECTIN4 32-349 (Homo sapiens, UniProt Q96NY8); fluorescence polarisation; peptide).
Under “ORC-Mcm2-7 interaction lifetime shortening”, `Mcm2-7, DyLight 650 on Mcm6 N-terminus (Saccharomyces cerevisiae)` is recorded as 2.5 fold (ORC CDK-phosphorylated, Orc2 and Orc6 (Saccharomyces cerevisiae); FRET; baseline: unphosphorylated ORC, higher = shorter lifetime).
For `B1 (TIMP1)`, the Ki was 5.2 nM (MMP2 110-452 (Homo sapiens, UniProt P08253); MMP-2 inhibition, inhibitor, Morrison tight-binding equation).
For `ALB (Homo sapiens, UniProt P02768)`, cross-linked residues read “K219 to K732” (CPXM2 (Homo sapiens, UniProt Q8N436); cross-linking MS; with: DSSO).
With `MRFEFESDASSHLNEVLTELESVELENVEYEGP (rec11 1-33 (Schizosaccharomyces pombe, UniProt Q92380); sequence looked up)` the Ki was 32000 nM (hhp1 1-296 (Schizosaccharomyces pombe, UniProt P40235); pull-down).
For `FGA (Homo sapiens, UniProt P02671)`, cross-linked residues read “K100 to K3” (A4GALT (Homo sapiens, UniProt Q9NPC4); cross-linking MS; with: DSSO).
Under interaction screen, `NSE3 (Saccharomyces cerevisiae, UniProt Q05541)` is recorded as “cross-linked” (SMC6 (Saccharomyces cerevisiae, UniProt Q12749); cross-linking MS; hits only).
`Histone H3.1 (Homo sapiens, UniProt P68431)` — result for interaction screen: “cross-linked” (CBX8 (Homo sapiens, UniProt Q9HC52); cross-linking MS; hits only).
`colistin` gave an MIC of 16 µg/mL (Escherichia coli; broth microdilution; clinical isolate RKI-No_602/16).
`human pyruvate kinase PKM`: “log2 fold change” 0.52 (PP6C (human); co-immunoprecipitation, IP-MS; CYB5R4 knockout cells; concentration not given; baseline: CYB5R4 knockout over parental).
Under cross-linked residues, `FGB (Homo sapiens, UniProt P02675)` is recorded as “K52 to K558” (AFG3L2 (Homo sapiens, UniProt Q9Y4W6); cross-linking MS; with: DSSO).
`PFVVGGEDLDPFGPRRGGMIVDP (PSMF1 190-212 (Homo sapiens, UniProt Q92530))` gave an IC50 of 50000 nM (20S proteasome core particle (Homo sapiens, UniProt P28072); β5 activity inhibition, inhibitor; peptide; 10 nM, with: suc-LLVY-AMC).
For `ACTA1 (Gallus gallus, UniProt P68139)`, “binding event lifetime” read 29 ± 1 ms (MYH1 (Oryctolagus cuniculus, UniProt A0A5F9CQ93); laser trap; with: ATP 5 µM).
`DNM1L K38A (Homo sapiens)`: “relative GTPase activity” 10 fold (DNM1L 1-699 (Homo sapiens, UniProt O00429-4); GTPase activity; 1.3 µM total, without actin filaments; higher = more activity).
Under “log2 fold change”, `B2 (human bleomycin hydrolase)` is recorded as -0.77 (PP6C (human); co-immunoprecipitation, IP-MS; CYB5R4 knockout cells; concentration not given; baseline: CYB5R4 knockout over parental).
The Ka of `DYNLRB1/DYNLL1/DYNLT1/DYNC1LI2/DYNC1I2/DYNC1H1 dynein-1 complex (Homo sapiens)` is reported as over 1.6e+06 M⁻¹ (BICD2/HOOK3 chimera BicD2 CC, Hook3 LIC-BD 1-98, HaloTag; pull-down).

Repeated from above:
`human pyruvate kinase PKM`: “log2 fold change” 0.52 (PP6C (human); co-immunoprecipitation, IP-MS; CYB5R4 knockout cells; concentration not given; baseline: CYB5R4 knockout over parental).
For `FGA (Homo sapiens, UniProt P02671)`, cross-linked residues read “K100 to K3” (A4GALT (Homo sapiens, UniProt Q9NPC4); cross-linking MS; with: DSSO).
